Results pooled from the literature.
± marks the error that the study gave. In brackets after ≈: the same amount, converted by molar mass.

For N=C(N)NCCC[C@@H]1NC(=O)[C@H](CCCCNC(=O)CC[C@H](NC(=O)CCOCCOCCOCCOCCNC(=O)CC[C@H](NC(=O)CN2CCN(CC(=O)O)CCN(CC(=O)O)CCN(CC(=O)O)CC2)C(=O)NCCOCCOCCOCCOCCC(=O)N[C@@H](CCC(=O)NCCCC[C@@H]2NC(=O)[C@@H](Cc3ccccc3)NC(=O)[C@H](CC(=O)O)NC(=O)CNC(=O)[C@H](CCCNC(=N)N)NC2=O)C(=O)NCCCC[C@@H]2NC(=O)[C@@H](Cc3ccccc3)NC(=O)[C@H](CC(=O)O)NC(=O)CNC(=O)[C@H](CCCNC(=N)N)NC2=O)C(=O)NCCCC[C@@H]2NC(=O)[C@@H](Cc3ccccc3)NC(=O)[C@H](CC(=O)O)NC(=O)CNC(=O)[C@H](CCCNC(=N)N)NC2=O)NC(=O)[C@@H](Cc2ccccc2)NC(=O)[C@H](CC(=O)O)NC(=O)CNC1=O [indium-111 labelled], “tumour to tissue ratio” read 1.46 ± 0.67 (athymic nude mice, female, U-87 MG glioma xenograft, tumour and kidney; intravenous, 0.5 h; baseline: tumour over kidney).
CCCCCCCCC(=O)NCc1ccc(O)c(OC)c1 gave an IC50 of 0.439 µg/mL (≈ 1.49 µM) (mouse mAb 1-F12; antibody binding, indirect competitive ELISA; together with: coating antigen 6-OVA).
CC[C@H](C)[C@H](NC(=O)[C@@H](NC(=O)[C@H](CC(=O)O)NC(C)=O)[C@@H](C)O)C(=O)N[C@@H](CCCNC(=N)N)C(=O)N[C@@H](CC(C)C)C(=O)N[C@@H](CC(C)C)C(=O)N[C@@H](Cc1ccccc1)C(=O)N[C@@H](CCC(N)=O)C(=O)N[C@@H](CC(C)C)C(=O)N[C@@H](CCSC)C(=O)N[C@@H](CCCNC(=N)N)C(=O)N1CCC[C@H]1C(=O)N1CCC[C@H]1C(=O)N[C@@H](CC(N)=O)C(=O)N[C@@H](CCSC)C(=O)N[C@H](C(=O)N1CCC[C@H]1C(=O)N[C@@H](C)C(=O)N[C@H](C(=O)N[C@@H](CC(N)=O)C(=O)N[C@@H](C)C(N)=O)C(C)C)[C@@H](C)O: “α4β7− CCR9+ cells” 11.8% (item: HA-51 tetramer; antigen-experienced tetramer+ CD4 T cells, healthy adults, HLA-DRB1*0101; dose not given).
For C[C@@H](O)[C@H](NC(=O)[C@@H]1CSSC[C@H](NC(=O)[C@@H](Cc2ccccc2)NC(=O)CN2CCCN3CCN(CCCN(CP(=O)(O)O)CC3)CC2)C(=O)N[C@@H](Cc2ccc(O)cc2)C(=O)N[C@H](Cc2c[nH]c3ccccc23)C(=O)N[C@@H](CCCCN)C(=O)N[C@@H]([C@@H](C)O)C(=O)N1)C(=O)O [copper-64 labelled], the tumour-to-tissue ratio was 178 ± 56 (Lewis rat, male, tumour-bearing; 4 h; baseline: tumour over muscle).
CC[C@H]1CN2CCc3cc(OC)c(OC)cc3[C@@H]2C[C@@H]1C[C@@H]1c2cc(OC)c(OC)cc2CCN1C(=O)OCc1ccc(NC(=O)[C@@H]2CCCN2C(=O)[C@H](C)NC(=O)[C@H](CCC(N)=O)NC(=O)[C@H](CC(C)C)NC(=O)[C@H](CCCCN)NC(=O)[C@H](CO)NC(=O)[C@H](CO)NC(=O)[C@H](Cc2cnc[nH]2)NC(C)=O)cc1 has a toxic dose of 822 nmol (convulsions and death; mouse; intravenous, dose not given, single dose).
CCCC[C@H](NC(=O)CNC(=O)CNC(=O)c1ccc(NN)nc1)C(=O)N[C@H]1CC(=O)NCCCC[C@@H](C(N)=O)NC(=O)[C@H](Cc2c[nH]c3ccccc23)NC(=O)[C@H](CCCNC(=N)N)NC(=O)[C@@H](Cc2ccccc2)NC(=O)[C@H](Cc2c[nH]cn2)NC1=O [technetium-99m labelled]: “tissue uptake ratio” 12 (C57 mouse, B16/F1 melanoma-bearing; intravenous, 0.5 h; baseline: tumour over liver).
The current density of CCN(Cc1ccccc1)C(=O)CCc1nc(CN2CCN(C(=O)Cc3ccc(OC)c(OC)c3)CC2)no1 is reported as 59.8 ± 3.84 pA/pF (KCNQ4 (Homo sapiens, UniProt P56696); potassium current, opener, whole-cell patch clamp; CHO stable; 100 nM, -10 mV).
Under “time to plateau tumour signal”, CN1/C(=C/C=C2\CCCC(/C=C/C3=[N+](C)c4ccccc4C3(C)C)=C2SCCC(=O)N[C@@H](Cc2ccccc2)C(=O)N[C@@H](Cc2ccccc2)C(=O)N[C@@H](CCCCNC(=O)CCC(=O)O)C(=O)N[C@@H](CCCCNC(=O)CCCC[C@@H]2SC[C@@H]3NC(=O)N[C@@H]32)C(=O)O)C(C)(C)c2ccccc21 is recorded as 12 h (fluorescence imaging; BALB/c nude mice with 4T1 tumour; intravenous, 0.05 µmol/kg).
N=C(N)NCCC[C@@H]1NC(=O)[C@H](CCCCNC(=O)CCOCCOCCOCCOCCNC(=O)CC[C@H](NC(=O)CCOCCOCCOCCOCCNC(=O)CC[C@H](NC(=O)CN2CCN(CC(=O)O)CCN(CC(=O)O)CCN(CC(=O)O)CC2)C(=O)NCCOCCOCCOCCOCCC(=O)N[C@@H](CCC(=O)NCCOCCOCCOCCOCCC(=O)NCCCC[C@@H]2NC(=O)[C@@H](Cc3ccccc3)NC(=O)[C@H](CC(=O)O)NC(=O)CNC(=O)[C@H](CCCNC(=N)N)NC2=O)C(=O)NCCOCCOCCOCCOCCC(=O)NCCCC[C@@H]2NC(=O)[C@@H](Cc3ccccc3)NC(=O)[C@H](CC(=O)O)NC(=O)CNC(=O)[C@H](CCCNC(=N)N)NC2=O)C(=O)NCCOCCOCCOCCOCCC(=O)NCCCC[C@@H]2NC(=O)[C@@H](Cc3ccccc3)NC(=O)[C@H](CC(=O)O)NC(=O)CNC(=O)[C@H](CCCNC(=N)N)NC2=O)NC(=O)[C@@H](Cc2ccccc2)NC(=O)[C@H](CC(=O)O)NC(=O)CNC1=O [indium-111 labelled]: “tumour to tissue ratio” 2.6 ± 0.8 (athymic nude mice, female, U-87 MG glioma xenograft, tumour and liver; intravenous, 72 h; baseline: tumour over liver).
With CN[C@](C)(C[18F])C(=O)O the tracer uptake was 13 %ID/g (SK-OV-3 tumour model; host not given, tumour; 2 h, tumour-bearing).
The hemolysis of C[C@H]1COc2c(N3CCN(C)CC3)c(F)cc3c(=O)c(C(=O)N[C@@H](CCCNC(=N)N)C(=O)N[C@@H](Cc4ccc(-c5ccccc5)cc4)C(=O)N[C@@H](CCCNC(=N)N)C(=O)N[C@@H](Cc4ccc(-c5ccccc5)cc4)C(=O)N[C@@H](CCCNC(=N)N)C(N)=O)cn1c23 is reported as 2.7 ± 0.004% (human erythrocytes; 100 µM, 1 h, 37 °C; baseline: Triton X-100).
For N=C(N)NCCC[C@@H]1NC(=O)[C@H](CCCCNC(=O)CC[C@H](NC(=O)CCOCCOCCOCCOCCNC(=O)CN2CCN(CC(=O)O)CCN(CC(=O)O)CCN(CC(=O)O)CC2)C(=O)NCCCC[C@@H]2NC(=O)[C@@H](Cc3ccccc3)NC(=O)[C@H](CC(=O)O)NC(=O)CNC(=O)[C@H](CCCNC(=N)N)NC2=O)NC(=O)[C@@H](Cc2ccccc2)NC(=O)[C@H](CC(=O)O)NC(=O)CNC1=O [indium-111 labelled], “tumour to tissue ratio” read 2.6 ± 0.21 (athymic nude mice, female, U-87 MG glioma xenograft, tumour and lungs; intravenous, 1 h; baseline: tumour over lungs).
With CCCC[C@H](NC(=O)CCCCCCCNC(=O)c1ccc(NN)nc1)C(=O)N[C@H]1CC(=O)NCCCC[C@@H](C(N)=O)NC(=O)[C@H](Cc2c[nH]c3ccccc23)NC(=O)[C@H](CCCNC(=N)N)NC(=O)[C@@H](Cc2ccccc2)NC(=O)[C@H](Cc2c[nH]cn2)NC1=O [technetium-99m labelled] the tissue uptake was 0.32 ± 0.09 %ID (C57 mouse, B16/F1 melanoma, intestines; intravenous, 0.037 MBq, 24 h).
For CN(C)CC1CCCCC1(O)c1cccc(O)c1 (stereo not drawn), the efflux ratio was 1.1 (P-glycoprotein; Caco-2 TC7; 10 µM, 3 h, pH 7.4, together with: cyclosporin A 10 µM).
CC(C)C[C@H](NC(=O)[C@@H]1CCCN1C(=O)[C@H](CCCCN)NC(=O)[C@@H](N)CO)C(=O)N1CCC[C@H]1C(=O)N[C@@H](CCC(=O)O)C(=O)N[C@H](C(=O)N[C@H](C(=O)N[C@@H](CC(=O)O)C(=O)N[C@@H](CCC(=O)O)C(=O)N[C@@H](Cc1ccc(O)cc1)C(=O)N[C@@H](Cc1cn(CCOCCOCCOCCNC(=O)CCc2ccc(O)c(CN(CCN(CC(=O)O)Cc3cc(CCC(=O)NCCCC[C@H](NC(=O)N[C@@H](CCC(=O)O)C(=O)O)C(=O)O)ccc3O)CC(=O)O)c2)nn1)C(=O)O)[C@@H](C)O)C(C)C [gallium-68 labelled] — result for “standardized uptake value”: 0.25 g/g (NMRI nu/nu mice, LNCaP tumour, lung; 10 MBq, high molar activity).
CCCC[C@H](NC(=O)CNC(=O)CNC(=O)CNC(=O)c1ccc(NN)nc1)C(=O)N[C@H]1CC(=O)NCCCC[C@@H](C(N)=O)NC(=O)[C@H](Cc2c[nH]c3ccccc23)NC(=O)[C@H](CCCNC(=N)N)NC(=O)[C@@H](Cc2ccccc2)NC(=O)[C@H](Cc2c[nH]cn2)NC1=O [technetium-99m labelled] has an uptake ratio of 351 (C57 mouse, B16/F1 melanoma; 2 h; baseline: tumour over muscle).
The log P of N=C(N)NCCC[C@@H]1NC(=O)[C@H](CCCCNC(=O)CCOCCOCCOCCOCCNC(=O)CN2CCN(CC(=O)O)CCN(CC(=O)O)CCN(CC(=O)O)CC2)NC(=O)[C@@H](Cc2ccccc2)NC(=O)[C@H](CC(=O)O)NC(=O)CNC1=O [indium-111 labelled] is reported as -3.48 ± 0.12 (octanol/water).
C[C@@H]1NC(=O)[C@H](CCC(=O)O)NC(=O)CNC(=O)[C@H](CC(=O)O)NC(=O)CNC(=O)[C@H](CCCCNC(=O)CCCCCNC(=O)[C@H](CS)NC(=O)CCCCCNC(=O)CN2CCN(CC(=O)O)CCN(CC(=O)O)CCN(CC(=O)O)CC2)NC(=O)[C@@H](Cc2ccc(O)cc2)NC1=O [gallium-68 labelled] gave an intact tracer of over 90% (mouse serum; 1.5 h, 37 °C, 90% serum).
For CSCC[C@H](NC(=O)[C@H](CC(C)C)NC(=O)[C@H](Cc1c[nH]cn1)NC(=O)CNC(=O)[C@@H](NC(=O)[C@H](C)NC(=O)[C@H](Cc1c[nH]c2ccccc12)NC(=O)[C@H](CCC(N)=O)NC(=O)CCCCCNC(=O)CNC(=O)CNC(=O)CNC(=O)CSC(C)=O)C(C)C)C(N)=O [technetium-99m labelled], the tissue uptake was 2 ± 1.21 %ID/g (healthy Swiss mouse, large intestine, contents removed; intravenous, 18.5 MBq, 90 min).
COc1cc(C(=O)NCCOCCOCCOCCNC(=O)c2ccc([18F])nc2)ccc1NC(=O)C1NC(CC(C)(C)C)C(C#N)(c2ccc(Cl)cc2F)C1c1cccc(Cl)c1F (stereo not drawn) has a tracer uptake of 0.49 %ID/g (SJSA-1 tumour model; host not given, stomach; 2 h, tumour-bearing).
With C[C@@H](O)[C@H](NC(=O)[C@@H]1CSSC[C@H](NC(=O)[C@@H](Cc2ccccc2)NC(=O)CN2CCN(CC(N)=O)CCN(CC(N)=O)CCN(CC(N)=O)CC2)C(=O)N[C@@H](Cc2ccc(O)cc2)C(=O)N[C@H](Cc2c[nH]c3ccccc23)C(=O)N[C@@H](CCCCN)C(=O)N[C@@H]([C@@H](C)O)C(=O)N1)C(=O)O [lead-212 labelled] the mortality was about 40% (CD-1 mice; 1 x 40 µCi, nine days).

For quick reference, copied from above:
CCCC[C@H](NC(=O)CNC(=O)CNC(=O)c1ccc(NN)nc1)C(=O)N[C@H]1CC(=O)NCCCC[C@@H](C(N)=O)NC(=O)[C@H](Cc2c[nH]c3ccccc23)NC(=O)[C@H](CCCNC(=N)N)NC(=O)[C@@H](Cc2ccccc2)NC(=O)[C@H](Cc2c[nH]cn2)NC1=O [technetium-99m labelled]: “tissue uptake ratio” 12 (C57 mouse, B16/F1 melanoma-bearing; intravenous, 0.5 h; baseline: tumour over liver).
The current density of CCN(Cc1ccccc1)C(=O)CCc1nc(CN2CCN(C(=O)Cc3ccc(OC)c(OC)c3)CC2)no1 is reported as 59.8 ± 3.84 pA/pF (KCNQ4 (Homo sapiens, UniProt P56696); potassium current, opener, whole-cell patch clamp; CHO stable; 100 nM, -10 mV).
Under “time to plateau tumour signal”, CN1/C(=C/C=C2\CCCC(/C=C/C3=[N+](C)c4ccccc4C3(C)C)=C2SCCC(=O)N[C@@H](Cc2ccccc2)C(=O)N[C@@H](Cc2ccccc2)C(=O)N[C@@H](CCCCNC(=O)CCC(=O)O)C(=O)N[C@@H](CCCCNC(=O)CCCC[C@@H]2SC[C@@H]3NC(=O)N[C@@H]32)C(=O)O)C(C)(C)c2ccccc21 is recorded as 12 h (fluorescence imaging; BALB/c nude mice with 4T1 tumour; intravenous, 0.05 µmol/kg).
